Assay results gathered from unrelated publications.
Each line is one published result; not all experiments were run side by side. ± gives the spread as reported.

Cn1cncc1-c1c(F)cncc1NC(=O)c1c(N)nn2cc(F)cnc12  remaining compound (human EDTA plasma; 4000 ng/mL, time not given, 3 freeze-thaw cycles at -80 °C, high QC): 99.8%
CSCC[C@H](N)C(=O)N[C@H](CC(C)C)C(=O)N[C@@H](CCCNC(=N)N)C(=O)N[C@@H](Cc1c[nH]c2ccccc12)C(=O)N[C@@H](CO)C(=O)N[C@@H](CCCNC(=N)N)C(=O)N[C@@H](CCCCN)C(=O)N[C@@H](CC(C)C)C(=O)N1CCC[C@H]1C(=O)N[C@@H](CS)C(=O)N[C@H](C(=O)N[C@@H](CO)C(N)=O)C(C)C  remaining activity (12G5 competition, SUP-T1 cells; human plasma; concentration not given, 8 h): 45 ± 5%
O=C1CC2(CCCC2)CC(=O)N1CCCCN1CCN(c2ncccn2)CC1  remaining parent compound (LC-MS; Sprague-Dawley rat liver microsomes; 10 µM, 20 min, pH 7.4, with: NADPH; baseline: time 0): 78%
CCOC(=O)c1sc(Nc2ncccn2)nc1-c1ccccn1  remaining parent (human liver microsomes; 60 min): 63.1 area %
CC(C)C[C@@H]1NC(=O)CNC(=O)[C@H](CC(N)=O)NC(=O)[C@H](CCCNC(=N)N)NC(=O)[C@H]([C@@H](C)O)NC(=O)[C@@H]2CSSC[C@@H]3NC(=O)[C@H]([C@@H](C)O)NC(=O)CNC(=O)CNC(=O)[C@H](C(C)C)NC(=O)[C@@H]4CSSC[C@H](NC(=O)[C@H]([C@@H](C)O)NC(=O)[C@H](CSSC[C@H](NC(=O)[C@H](C(C)C)NC(=O)[C@@H]5CCCN5C1=O)C(=O)NCC(=O)N[C@@H](CCC(=O)O)C(=O)N[C@@H]([C@@H](C)O)C(=O)N4)NC(=O)CNC(=O)[C@@H]1CCCN1C(=O)[C@H]([C@@H](C)O)NC(=O)[C@H](CC(N)=O)NC3=O)C(=O)N[C@@H](CO)C(=O)N[C@@H](Cc1c[nH]c3ccccc13)C(=O)N1CCC[C@H]1C(=O)N[C@@H](C(C)C)C(=O)N2  remaining peptide (HPLC; ammonium bicarbonate 0.1 M; 180 µM, 7 days, pH 9.0, 37 °C, deamidation stability): 77 ± 1%
CCOc1ccc2ccc(=O)oc2c1  remaining compound (mouse liver microsomes; 1 µM, 60 min, pH 7.4, with: with cofactors): 0.2%
CSCC[C@H](NC(=O)[C@H](CCCCN)NC(=O)[C@H](CCCNC(=N)N)NC(=O)[C@H](CO)NC(=O)[C@H](Cc1c[nH]c2ccccc12)NC(=O)[C@H](CCCNC(=N)N)NC(=O)[C@@H](CC(C)C)NC(=O)[C@@H](N)CCSC)C(=O)N1CCC[C@H]1C(=O)N[C@@H](CS)C(=O)N[C@H](C(=O)N[C@@H](CO)C(N)=O)C(C)C  remaining activity (12G5 competition, SUP-T1 cells; human plasma; 20 µM, 8 h, 37 °C): 77 ± 24%
Cc1cc(C(=O)NC(C)(C)COc2cccc3c2C(N)=NS(=O)(=O)N3)cc(C)n1  remaining parent compound (LC-MS; Sprague-Dawley rat liver microsomes; 10 µM, 60 min, pH 7.4, with: NADPH; baseline: time 0): 101%
CC(C)C[C@@H]1NC(=O)[C@H](CCCCN)NC(=O)[C@H](CC(N)=O)NC(=O)[C@H](CCCNC(=N)N)NC(=O)[C@H]([C@@H](C)O)NC(=O)[C@@H]2CSSC[C@@H]3NC(=O)[C@H]([C@@H](C)O)NC(=O)CNC(=O)CNC(=O)[C@H](C(C)C)NC(=O)[C@@H]4CSSC[C@H](NC(=O)[C@H](CCCCN)NC(=O)[C@H](CSSC[C@H](NC(=O)[C@H](C(C)C)NC(=O)[C@@H]5CCCN5C1=O)C(=O)NCC(=O)N[C@@H](CCC(=O)O)C(=O)N[C@@H]([C@@H](C)O)C(=O)N4)NC(=O)CNC(=O)[C@@H]1CCCN1C(=O)[C@H]([C@@H](C)O)NC(=O)[C@H](CC(N)=O)NC3=O)C(=O)N[C@@H](CO)C(=O)N[C@@H](Cc1c[nH]c3ccccc13)C(=O)N1CCC[C@H]1C(=O)N[C@@H](C(C)C)C(=O)N2  remaining peptide (HPLC; ammonium bicarbonate; 180 µM, 14 days, pH 9.0, 25 °C, deamidation stability): 98.4 ± 0.5%
CC(C)C[C@H](NC(=O)[C@H](N)C(C)C)C(=O)N[C@@H](CCCNC(=N)N)C(=O)N[C@@H](Cc1c[nH]c2ccccc12)C(=O)N[C@@H](CO)C(=O)N[C@@H](CCCNC(=N)N)C(=O)N[C@@H](CCCCN)C(=O)N[C@@H](CC(C)C)C(=O)N1CCC[C@H]1C(=O)N[C@@H](CS)C(=O)N[C@H](C(=O)N[C@@H](CO)C(N)=O)C(C)C  remaining activity (12G5 competition, SUP-T1 cells; human plasma; concentration not given, 2 h): 75 ± 8%
N#Cc1ccc(Nc2nc(N)cc(Oc3c(F)cc(-c4ccc(C#N)cc4)cc3F)n2)cc1  remaining compound (human plasma; 1 µM, 2.00 h, pH 7.4, 37 °C): 86.7%

For quick reference, copied from above:
Cn1cncc1-c1c(F)cncc1NC(=O)c1c(N)nn2cc(F)cnc12  remaining compound (human EDTA plasma; 4000 ng/mL, time not given, 3 freeze-thaw cycles at -80 °C, high QC): 99.8%
N#Cc1ccc(Nc2nc(N)cc(Oc3c(F)cc(-c4ccc(C#N)cc4)cc3F)n2)cc1  remaining compound (human plasma; 1 µM, 2.00 h, pH 7.4, 37 °C): 86.7%
